Results pooled from the literature.
Parts stem from different laboratories: compare values within a part only. Substitutions count along the parent as printed.

Series 1 — technique: RNA Bind-n-Seq; molecule type: RNA; medium: in vitro; concentration: 200 nM; setting: whole 134-nt RNA, ends assumed; together with: 150 mM LiCl; reference: input library; reading: higher = stronger binding; library: 7-deaza-guanosine replaces G
Target: Fragile X messenger ribonucleoprotein 1, C-terminal low-complexity region (Fmr1, Mus musculus, UniProt P35922)
Constant ends, left off below: GGGAGUUCUACAGUCCGACGAUC … UGGAAUUCUCGGGUGUCAAGG
| Strand | log2 enrichment |
| --- | --- |
| UCAGCAACCACCUCAACUCAUUGACUCCGCCAACAUCCGUCAGGAGGAUGCCUUUGAUAACAACAGUGACAUUGCUGAAGAUGGUGGCCA | -0.607 |
| UCCUGUGCUACACAUCGUAUGUACCGAAUCGGCCCCCCGGCCCCCCGGGGCCCCCCGGGAAAGUAUUAUGUUACGCCGUUCGGAUCUGCA | 0.867 |
| UCCUGUGCUACACAUCGUAUGUACCGAAUCGGCCCCCCGGGGCCCCCCGGGGCCCCCCGGAAAGUAUUAUGUUACGCCGUUCGGAUCUGC | -3.08 |
| UGGCAUGGAUCCAGUGGGCUGAGACCACCCUCAUUCAGCGGGAUCAGGAGCCAAUCCCGCAGAACAUUGACCGAGUUAAAGCCCUUAUCG | -2.67 |
| UCCUGUGCUACACAUCGUAUGUACCGAAUCGGAAAAAAGGGAAAAAAGGAAAAAAGGGGAAAGUAUUAUGUUACGCCGUUCGGAUCUGCA | -1.3 |
| UCAAGUCCUGUGCUACACAUCGUAUGUACCGAAUCGGUUGGGGUUGGGGUUGGGAAAGUAUUAUGUUACGCCGUUCGGAUCUGCACUUCC | -1.41 |
| CCUCAAGUCCUGUGCUACACAUCGUAUGUACCGAAUCGGAAGGGGAAGGAAGGAAAGUAUUAUGUUACGCCGUUCGGAUCUGCACUUCCA | -1.58 |
| CUGUGCUACACAUCGUAUGUACCGAAUCGGGGUUUUUUUGGGGUUUGGGGUUUUUUUGGGGAAAGUAUUAUGUUACGCCGUUCGGAUCUG | 0.524 |
| AGUCCUGUGCUACACAUCGUAUGUACCGAAUCGGGGUGGGGAGGGGAAAAAAAGGGGAAAGUAUUAUGUUACGCCGUUCGGAUCUGCACU | 0.507 |
| UGCUGUUCAGGUGGUGGAGAAGAAGAUGGAACCCCAGGCUGCCUGGCUACAGAGCCUGGAGGGAUGCAUGUGGACAGCCAAGAAGAAGCU | -2.61 |
| UGGCCCUGGUGGCAUGCGGGGAGGAAGAGGUGGCCUCAUGGAUCGUGGUGGCCCCGGUGGAAUGUUCAGAGGUGGCCGUGGUGGAGACAG | -0.633 |

Series 2 — technique: universal PBM; molecule type: double-stranded DNA, one strand shown; medium: in vitro; concentration: 600 nM; reading: higher = stronger binding
Target: Sal-like protein 4, full length isoform A (SALL4, Homo sapiens, UniProt Q9UJQ4, residues 1-1053)
Sequence of UniProt Q9UJQ4 (whole entry, looked up): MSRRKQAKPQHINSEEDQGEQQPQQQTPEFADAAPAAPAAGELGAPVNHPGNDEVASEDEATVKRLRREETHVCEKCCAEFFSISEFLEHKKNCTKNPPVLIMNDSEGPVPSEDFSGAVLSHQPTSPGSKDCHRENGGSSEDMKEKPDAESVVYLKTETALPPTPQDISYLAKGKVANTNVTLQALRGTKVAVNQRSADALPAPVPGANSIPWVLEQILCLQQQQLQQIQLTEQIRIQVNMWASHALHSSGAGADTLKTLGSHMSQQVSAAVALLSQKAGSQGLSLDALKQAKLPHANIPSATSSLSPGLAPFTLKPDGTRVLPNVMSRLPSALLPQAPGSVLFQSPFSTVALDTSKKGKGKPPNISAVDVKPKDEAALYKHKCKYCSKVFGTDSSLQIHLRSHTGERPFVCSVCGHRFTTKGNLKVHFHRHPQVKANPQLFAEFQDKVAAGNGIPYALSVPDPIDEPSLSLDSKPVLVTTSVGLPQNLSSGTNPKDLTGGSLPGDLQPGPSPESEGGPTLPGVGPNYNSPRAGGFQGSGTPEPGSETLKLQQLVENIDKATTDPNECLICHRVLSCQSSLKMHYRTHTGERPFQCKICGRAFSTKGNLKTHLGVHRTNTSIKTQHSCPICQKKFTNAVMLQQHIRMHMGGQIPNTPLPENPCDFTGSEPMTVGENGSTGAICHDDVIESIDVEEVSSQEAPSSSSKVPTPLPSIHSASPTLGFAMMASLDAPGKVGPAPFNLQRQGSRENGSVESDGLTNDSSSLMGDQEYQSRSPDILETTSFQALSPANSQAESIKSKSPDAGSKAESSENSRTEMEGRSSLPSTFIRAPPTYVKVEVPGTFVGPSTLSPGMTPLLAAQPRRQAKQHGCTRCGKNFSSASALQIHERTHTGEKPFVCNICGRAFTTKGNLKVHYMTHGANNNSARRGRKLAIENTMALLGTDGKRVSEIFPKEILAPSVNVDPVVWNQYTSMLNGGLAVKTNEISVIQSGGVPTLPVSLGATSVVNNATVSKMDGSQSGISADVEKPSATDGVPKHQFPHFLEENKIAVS
Setting: 8-mer, flanks averaged, mean of replicates
| Strand | E-score |
| --- | --- |
| AAGCTCCA | -0.0815 |
| CCATTCAA | 0.107 |
| AAACTGCA | -0.037 |
| ATAGCGTC | 0.119 |
| AGGCTGAT | -0.0334 |
| AAGCCGAT | 0.0333 |
| GTAGCGCA | -0.146 |
| ACTCCGAG | -0.0774 |
| GCACGAGA | -0.131 |
| GTTAATCA | 0.277 |
| GTCTGGTA | -0.0675 |
| ACATGCGG | -0.161 |
| GCTTTCTA | 0.105 |
| ACAGCAGA | -0.0026 |
| CCGTTTCG | -0.152 |
| ACTAACTG | -0.0833 |
| AGTGAAAG | 0.153 |
| AAGTCTGT | 0.171 |
| AGCTTCAG | -0.111 |
| CAATGTAG | -0.00787 |
| CAGTCGTA | 0.0427 |
| ATAACGAC | 0.146 |
| ATTGGGAG | 0.0248 |
| CCGTGTTC | -0.0284 |
| CAACTCTG | -0.0963 |

Series 3 — technique: protein-binding microarray; molecule type: double-stranded DNA, one strand shown; medium: in vitro; concentration: 2540 nM top; setting: 60-bp whole probe; together with: salmon DNA 0.4 mg/ml; reference: random background probes; reading: higher = stronger binding; constant ends, left off below: GCCTAGCAC … GTCTTGATTCGCTTGACGCTGCTG
Target: Interferon regulatory factor 3, full length, phosphomimetic (IRF3, Homo sapiens, UniProt Q14653, residues 1-427, S386D/S396D/S398D/S402D/T404D/S405D)
Target sequence (chain): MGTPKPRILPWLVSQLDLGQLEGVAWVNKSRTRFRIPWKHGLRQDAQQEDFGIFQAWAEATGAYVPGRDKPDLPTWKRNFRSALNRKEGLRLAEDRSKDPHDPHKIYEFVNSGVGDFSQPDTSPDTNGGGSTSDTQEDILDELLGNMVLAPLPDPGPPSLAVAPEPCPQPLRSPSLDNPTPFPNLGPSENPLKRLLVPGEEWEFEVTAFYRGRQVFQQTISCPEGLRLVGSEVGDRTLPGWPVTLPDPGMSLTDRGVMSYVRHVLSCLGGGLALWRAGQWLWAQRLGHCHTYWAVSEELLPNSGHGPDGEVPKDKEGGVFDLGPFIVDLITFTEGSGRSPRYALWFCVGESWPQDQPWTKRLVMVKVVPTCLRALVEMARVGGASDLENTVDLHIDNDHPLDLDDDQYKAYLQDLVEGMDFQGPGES
| Strand | fitted relative affinity |
| --- | --- |
| GACGATATCAGTATCAAGACGTGCTAG | 1.16 z-score |
| TTAGGTTTCAGGTATCGGTTAGTGCTA | 3.25 z-score |
| GACGGTATCGTTTTCGGGACGTGCTAG | 5.06 z-score |
| TTAGATATCGGACTGGATTAGTGCTAG | 0.201 z-score |
| TTAGATTTCGGGTTTCGATTAGTGCTA | 3.28 z-score |
| TTAGGTCTCCTACTGCTTCAGTGCTAG | 0.749 z-score |
| TCATTTCTGAATGTCTTACTGTGCTAG | 2.39 z-score |
| GACGATTTCGGGTTTCGAGAGGTGCTA | 2.67 z-score |
| TCATGTCTGGGTATTTTACTGTGCTAG | -0.24 z-score |
| GACGGTATCGGTATCGGAACGTGCTAG | 5.78 z-score |
| TTAGGTATCGGTCTCCGTTAGTGCTAG | 4.26 z-score |
| TCAGTTTGCCTCCTTCAGACTGTGCTA | 0.992 z-score |
| AGATATTCAGGTATATAAAGGTGCTAG | 0.298 z-score |
| CTTTCACCTCTCGGCCTGATGTGCTAG | 3.34 z-score |
| TTAGATCTCAGACTGGTTTAGTGCTAG | 0.00362 z-score |
| TTAGTTATCCTTCTCCTTTAGTGCTAG | 5.21 z-score |
| GACGGTTTCGGGACTGGGGATGTGCTA | 4.73 z-score |
| TTAGGACTGCTTTTCCTATAGTGCTAG | 0.474 z-score |
| TTTTTTTTTTACTTCGGGTGGTGCTAG | 1.98 z-score |
| CTCTTTCTCTGCTACCCTCTGGTGCTA | 2.35 z-score |

Series 4 — technique: RNA Bind-n-Seq; molecule type: RNA; medium: in vitro; concentration: not given; setting: RNA with constant flanks, ends assumed; reference: input RNA pool; reading: higher = stronger binding
Target: RING finger protein unkempt homolog, zinc fingers 1-6, GST-SBP tag (UNK, Homo sapiens, UniProt Q9C0B0, residues 30-357)
Constant ends, left off below: GGGAGUUCUACAGUCCGACGAUC … CAACAGAGGAUUGAGCAUCA
Residues (chain): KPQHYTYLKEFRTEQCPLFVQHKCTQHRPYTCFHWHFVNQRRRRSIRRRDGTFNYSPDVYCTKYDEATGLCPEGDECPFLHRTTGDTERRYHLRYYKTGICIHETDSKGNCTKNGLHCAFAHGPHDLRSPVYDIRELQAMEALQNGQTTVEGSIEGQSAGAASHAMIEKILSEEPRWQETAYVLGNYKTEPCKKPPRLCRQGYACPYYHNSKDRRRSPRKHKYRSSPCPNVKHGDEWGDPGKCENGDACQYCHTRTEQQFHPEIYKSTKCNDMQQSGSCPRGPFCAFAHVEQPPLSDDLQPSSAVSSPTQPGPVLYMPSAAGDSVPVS
| Strand | bound/input enrichment |
| --- | --- |
| AUGGAGAAGGAUUCUCUGCCCCGCUUUGUGCGCUCUGAAUUUUAUAAGGAGCUAAUCAAGCCGUCAUCUGGUCAGGCUUCCAAAAGUUGCCCUGUGAGUUGAGUUACAUCCUUUGUAGCA | 0.128 ratio |
| UAGAUACAUAUAUAUUUGCUUGAAGAAUCACCAAGCAAAUUGGUGAGAGGGUCUUUUCCAACCGAAUUUACACCUCCAUUUGUUGUGUUGUCUUGCACUUCCCAAUGUUGAUGUCUCUAU | 0.434 ratio |
| GAUGGAGCCGUCUUCUUUAACAAGGAAAGAACCAGAAACAUUGUUAAGUUUGACUUGAGGACCCGAAUCAAGAGCGGCGAGGCUAUCAUCAACUAUGCCAACUACCACGAUACGUCACCC | 0.085 ratio |
| UUCUAAAGGGCUCAAAACAAGGCACAGGCCAGCUGACUCGUGACUUGGUGUCUGUAACUGCUCCGUGGGUGCUCUGAUUUGGUGCGUGUUAUGAAGGGAGGGGGUCCCUGUACCCCUAUC | 0.171 ratio |
| AGUUUUUCUGCUUCCAAAAUUUUUAUUUCUGCAUUAGCUAUGGAUGGACAACAACUUUCCGUGGCAUAUCCCUGUGCUUUGUUGUAUGGAGUCUUUGCCCUGAUUUCUGUCUUCUGAACU | 0.284 ratio |
| GAGGCAGCUGCUCAGCUCCUGGAAUCUUCAGUUCAAAACCUUUUUAAGCAGGUAGAUUUAACCGACCCCGUACGCUGGAAGAUUUUAAAAGAUAAACAUAUCCCUCAAUUUUUACAAGAA | 0.525 ratio |
| AAACUCUCUAGCAAAACGACUGCUAAGUUAUCCACUAGUGCUAAAAGAAUUCAGAAGGAGCCCGCAGAGAUAACCCUUGAUCCUCCUCCUAACUGCAGUGCUGGGCCUAAAGGAGAUAAC | 0.549 ratio |
| GAUUCAUUGCCUGCUUUACUGGAAUUCUACAAAAUACACUAUUUGGACACUACAACGUUGACCGAACCAGUUUCCAGAUCCAGGCAGGGUAGUGGAGUGAUUCUCAGGCAGGAGGAGGCG | 0.338 ratio |
| UAUACCUCCAGAGAGCAGACUGUCUACUACGCCAAAGCAUUCUCGAGAGAUUUGCCCAGAGCUGCCGAAAUUCUUGCUGACAUAAUUCAGAACAGCACACUGGGAGAAGCAGAGAUUGAG | 0.0931 ratio |
| GUGCUAUUAAUAUUAGCUGAAGUAGCAAGCUAAAAGUAGACACUUCAUUUAUCUUUUCCGCCGCAUCCUCUCAACUGUUCCAGAUCCAGUUUUGCAUUUGGUUGUCUGUCUCAGUAGUCU | 0.73 ratio |
| GGGGACAGUGUUGGGAUUGUCAAGGAAAAAGGGGUAGGAAGGAAGGUGGAGGGAUUGAUCCCGUACCAGGGAGAAUAUUCCACUGAACUGUGAUUCUAUGGCUUGGGGCGGAGGGUGGGG | 0.465 ratio |

Series 5 — target: CCNB3, cyclin fold, Cln2 fusion (human); technique: yeast growth competition, sequencing; medium: yeast; setting: strong parent motif; reference: not given; reading: higher = stronger binding
Starting sequence: BRCA2 docking peptide (human); PSIKRNLLNEFDR; partner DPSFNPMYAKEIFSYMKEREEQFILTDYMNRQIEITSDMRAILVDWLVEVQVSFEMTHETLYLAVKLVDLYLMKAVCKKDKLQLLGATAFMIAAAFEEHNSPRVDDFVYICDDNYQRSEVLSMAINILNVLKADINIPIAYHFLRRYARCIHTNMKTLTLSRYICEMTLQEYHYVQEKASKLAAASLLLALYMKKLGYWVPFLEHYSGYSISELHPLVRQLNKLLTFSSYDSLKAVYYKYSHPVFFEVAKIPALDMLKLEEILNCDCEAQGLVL
| Change | normalised enrichment score |
| --- | --- |
| PSIKRNLLNEFDA [R13A] | 1.14 |
| WSIKRNLLNEFDR [P1W] | 1.92 |
| PRIKRNLLNEFDR [S2R] | 1.16 |
| PSIKRILLNEFDR [N6I] | 0.156 |
| PSIKRNLWNEFDR [L8W] | -0.0989 |
| PSIKRGLLNEFDR [N6G] | -0.11 |
| PSIKRNLLNLFDR [E10L] | 0.311 |
| PSIKRKLLNEFDR [N6K] | 0.176 |
| PSIKRNLLNEKDR [F11K] | 0.231 |
| FSIKRNLLNEFDR [P1F] | 1.04 |
| PSIKRNLLNYFDR [E10Y] | 0.795 |
| PSIKGNLLNEFDR [R5G] | -0.0302 |
| PSIKRNLLNEFDP [R13P] | 0.318 |

Some of these lines once more (series 1):
| Strand | log2 enrichment |
| --- | --- |
| UCCUGUGCUACACAUCGUAUGUACCGAAUCGGAAAAAAGGGAAAAAAGGAAAAAAGGGGAAAGUAUUAUGUUACGCCGUUCGGAUCUGCA | -1.3 |
| UCAAGUCCUGUGCUACACAUCGUAUGUACCGAAUCGGUUGGGGUUGGGGUUGGGAAAGUAUUAUGUUACGCCGUUCGGAUCUGCACUUCC | -1.41 |
| CCUCAAGUCCUGUGCUACACAUCGUAUGUACCGAAUCGGAAGGGGAAGGAAGGAAAGUAUUAUGUUACGCCGUUCGGAUCUGCACUUCCA | -1.58 |
| CUGUGCUACACAUCGUAUGUACCGAAUCGGGGUUUUUUUGGGGUUUGGGGUUUUUUUGGGGAAAGUAUUAUGUUACGCCGUUCGGAUCUG | 0.524 |
| AGUCCUGUGCUACACAUCGUAUGUACCGAAUCGGGGUGGGGAGGGGAAAAAAAGGGGAAAGUAUUAUGUUACGCCGUUCGGAUCUGCACU | 0.507 |
